Experimental data from different studies.
Each line is one published result; not all experiments were run side by side. Numbers after ± are the reported error.
NTSR1: Neurotensin receptor type 1 (NTSR1, Homo sapiens, UniProt P30989)
UniProt P30989, sequence (whole entry, looked up): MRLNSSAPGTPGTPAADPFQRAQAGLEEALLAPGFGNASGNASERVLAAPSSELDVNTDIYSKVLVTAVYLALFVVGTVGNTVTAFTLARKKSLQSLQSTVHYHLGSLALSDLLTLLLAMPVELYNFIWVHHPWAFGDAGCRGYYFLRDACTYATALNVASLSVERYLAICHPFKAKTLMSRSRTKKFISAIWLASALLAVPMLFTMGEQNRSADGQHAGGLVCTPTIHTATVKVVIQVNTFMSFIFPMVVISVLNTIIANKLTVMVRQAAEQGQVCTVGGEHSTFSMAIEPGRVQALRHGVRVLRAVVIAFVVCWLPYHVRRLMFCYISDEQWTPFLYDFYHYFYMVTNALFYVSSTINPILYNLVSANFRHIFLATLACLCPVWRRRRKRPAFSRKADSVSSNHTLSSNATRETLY
CHRM5: Muscarinic acetylcholine receptor M5 (CHRM5, Homo sapiens, UniProt P08912)
UniProt P08912, sequence (whole entry, looked up): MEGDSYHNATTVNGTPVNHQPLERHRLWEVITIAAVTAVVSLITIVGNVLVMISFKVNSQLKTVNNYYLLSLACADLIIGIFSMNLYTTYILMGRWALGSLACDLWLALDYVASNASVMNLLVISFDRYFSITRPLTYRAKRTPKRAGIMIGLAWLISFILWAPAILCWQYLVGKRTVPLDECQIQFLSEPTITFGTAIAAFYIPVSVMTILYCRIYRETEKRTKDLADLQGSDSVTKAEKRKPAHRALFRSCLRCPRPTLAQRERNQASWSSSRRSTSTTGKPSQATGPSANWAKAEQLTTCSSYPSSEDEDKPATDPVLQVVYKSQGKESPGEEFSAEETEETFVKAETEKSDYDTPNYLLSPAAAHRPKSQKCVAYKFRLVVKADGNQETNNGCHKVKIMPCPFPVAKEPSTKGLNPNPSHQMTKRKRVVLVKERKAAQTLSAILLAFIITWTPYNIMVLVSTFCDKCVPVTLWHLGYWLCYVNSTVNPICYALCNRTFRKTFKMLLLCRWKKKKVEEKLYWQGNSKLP
TDP1: Tyrosyl-DNA phosphodiesterase 1 (TDP1, Homo sapiens, UniProt Q9NUW8)
UniProt Q9NUW8, sequence (whole entry, looked up): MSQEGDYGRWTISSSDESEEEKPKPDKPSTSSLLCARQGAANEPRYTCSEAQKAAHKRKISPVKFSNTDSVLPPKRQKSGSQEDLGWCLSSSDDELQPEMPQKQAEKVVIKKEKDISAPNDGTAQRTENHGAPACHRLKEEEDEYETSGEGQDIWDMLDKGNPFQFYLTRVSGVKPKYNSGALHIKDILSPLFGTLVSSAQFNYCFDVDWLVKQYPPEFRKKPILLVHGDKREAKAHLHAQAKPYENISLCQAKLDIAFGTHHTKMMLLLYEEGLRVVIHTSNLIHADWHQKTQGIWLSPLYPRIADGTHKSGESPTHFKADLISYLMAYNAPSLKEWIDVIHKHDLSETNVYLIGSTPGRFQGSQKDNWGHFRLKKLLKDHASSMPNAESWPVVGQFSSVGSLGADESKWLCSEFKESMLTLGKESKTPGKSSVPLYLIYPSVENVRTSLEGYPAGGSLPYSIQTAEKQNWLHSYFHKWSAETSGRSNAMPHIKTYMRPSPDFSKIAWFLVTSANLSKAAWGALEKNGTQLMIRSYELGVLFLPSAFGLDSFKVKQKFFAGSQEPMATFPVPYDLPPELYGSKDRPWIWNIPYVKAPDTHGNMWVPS
C3ar1: C3a anaphylatoxin chemotactic receptor (C3ar1, Mus musculus, UniProt O09047)
UniProt O09047, sequence (whole entry, looked up): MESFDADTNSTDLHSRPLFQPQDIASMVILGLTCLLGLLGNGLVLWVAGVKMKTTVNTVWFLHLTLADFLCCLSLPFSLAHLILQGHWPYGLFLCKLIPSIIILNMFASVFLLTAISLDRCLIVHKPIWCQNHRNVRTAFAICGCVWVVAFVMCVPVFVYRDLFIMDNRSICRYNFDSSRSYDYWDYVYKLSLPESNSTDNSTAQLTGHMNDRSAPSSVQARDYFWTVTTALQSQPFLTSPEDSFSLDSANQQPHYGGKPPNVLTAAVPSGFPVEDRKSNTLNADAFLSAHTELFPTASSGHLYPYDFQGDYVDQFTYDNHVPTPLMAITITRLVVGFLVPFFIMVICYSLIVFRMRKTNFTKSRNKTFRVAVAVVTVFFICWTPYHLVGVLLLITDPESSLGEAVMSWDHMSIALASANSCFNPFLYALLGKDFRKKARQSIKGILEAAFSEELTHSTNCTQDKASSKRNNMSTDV
UniProt Q8TDU9, sequence (whole entry, unmodified, looked up): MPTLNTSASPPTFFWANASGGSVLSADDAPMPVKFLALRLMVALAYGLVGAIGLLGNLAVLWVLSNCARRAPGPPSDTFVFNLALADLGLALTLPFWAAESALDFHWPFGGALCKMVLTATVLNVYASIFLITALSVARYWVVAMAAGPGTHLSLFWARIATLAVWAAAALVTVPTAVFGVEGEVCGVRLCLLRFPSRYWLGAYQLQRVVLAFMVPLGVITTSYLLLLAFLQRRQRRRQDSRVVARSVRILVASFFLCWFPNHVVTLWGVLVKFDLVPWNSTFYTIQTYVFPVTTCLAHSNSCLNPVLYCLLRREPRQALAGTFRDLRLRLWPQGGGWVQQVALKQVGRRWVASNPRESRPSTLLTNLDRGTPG
UniProt Q969F8, sequence (whole entry, unmodified, looked up): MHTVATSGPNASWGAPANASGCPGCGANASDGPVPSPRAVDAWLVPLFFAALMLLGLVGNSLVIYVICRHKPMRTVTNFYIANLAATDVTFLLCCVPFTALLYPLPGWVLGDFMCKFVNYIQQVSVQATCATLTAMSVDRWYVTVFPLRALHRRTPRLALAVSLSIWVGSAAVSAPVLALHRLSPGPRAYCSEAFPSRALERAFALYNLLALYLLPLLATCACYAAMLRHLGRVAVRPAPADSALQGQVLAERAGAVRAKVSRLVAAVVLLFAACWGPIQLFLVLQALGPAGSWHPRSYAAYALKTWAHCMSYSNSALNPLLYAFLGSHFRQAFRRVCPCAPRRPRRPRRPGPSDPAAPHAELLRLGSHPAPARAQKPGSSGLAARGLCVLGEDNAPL
UniProt Q9UKP6, sequence (whole entry, looked up): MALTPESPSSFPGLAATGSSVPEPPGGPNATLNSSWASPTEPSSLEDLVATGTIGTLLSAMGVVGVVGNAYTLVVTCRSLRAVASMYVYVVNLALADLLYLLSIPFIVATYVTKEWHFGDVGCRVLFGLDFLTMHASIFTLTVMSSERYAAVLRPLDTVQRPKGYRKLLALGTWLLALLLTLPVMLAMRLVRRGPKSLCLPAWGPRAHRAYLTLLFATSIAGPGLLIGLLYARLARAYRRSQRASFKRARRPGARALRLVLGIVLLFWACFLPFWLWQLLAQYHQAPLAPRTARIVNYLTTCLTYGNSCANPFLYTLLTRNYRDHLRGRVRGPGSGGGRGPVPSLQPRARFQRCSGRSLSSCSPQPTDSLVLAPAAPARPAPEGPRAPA
UniProt P24530, sequence (whole entry, looked up): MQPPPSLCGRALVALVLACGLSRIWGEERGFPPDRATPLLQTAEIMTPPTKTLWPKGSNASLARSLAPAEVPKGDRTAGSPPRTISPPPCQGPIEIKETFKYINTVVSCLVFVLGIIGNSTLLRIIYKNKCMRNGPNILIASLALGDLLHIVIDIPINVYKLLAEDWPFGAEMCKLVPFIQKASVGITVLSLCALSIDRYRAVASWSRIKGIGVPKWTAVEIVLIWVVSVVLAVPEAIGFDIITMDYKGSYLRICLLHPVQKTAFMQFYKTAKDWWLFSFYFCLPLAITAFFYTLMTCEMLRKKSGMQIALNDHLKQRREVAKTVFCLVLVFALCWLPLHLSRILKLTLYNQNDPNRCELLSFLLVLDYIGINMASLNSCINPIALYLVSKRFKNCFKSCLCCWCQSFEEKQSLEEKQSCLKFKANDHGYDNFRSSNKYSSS
UniProt P25103, sequence (whole entry, unmodified, looked up): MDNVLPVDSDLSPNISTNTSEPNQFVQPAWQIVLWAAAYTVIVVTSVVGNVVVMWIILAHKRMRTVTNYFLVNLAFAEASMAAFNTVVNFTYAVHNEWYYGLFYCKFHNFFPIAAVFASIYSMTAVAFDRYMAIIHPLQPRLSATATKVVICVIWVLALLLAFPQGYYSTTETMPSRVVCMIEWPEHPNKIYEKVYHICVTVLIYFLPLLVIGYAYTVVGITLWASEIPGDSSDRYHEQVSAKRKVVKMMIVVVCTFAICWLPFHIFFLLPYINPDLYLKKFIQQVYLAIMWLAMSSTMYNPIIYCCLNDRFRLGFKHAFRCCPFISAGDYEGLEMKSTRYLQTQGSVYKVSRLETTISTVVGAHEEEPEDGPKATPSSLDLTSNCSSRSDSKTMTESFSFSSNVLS
UniProt Q9NSD7, sequence (whole entry, unmodified, looked up): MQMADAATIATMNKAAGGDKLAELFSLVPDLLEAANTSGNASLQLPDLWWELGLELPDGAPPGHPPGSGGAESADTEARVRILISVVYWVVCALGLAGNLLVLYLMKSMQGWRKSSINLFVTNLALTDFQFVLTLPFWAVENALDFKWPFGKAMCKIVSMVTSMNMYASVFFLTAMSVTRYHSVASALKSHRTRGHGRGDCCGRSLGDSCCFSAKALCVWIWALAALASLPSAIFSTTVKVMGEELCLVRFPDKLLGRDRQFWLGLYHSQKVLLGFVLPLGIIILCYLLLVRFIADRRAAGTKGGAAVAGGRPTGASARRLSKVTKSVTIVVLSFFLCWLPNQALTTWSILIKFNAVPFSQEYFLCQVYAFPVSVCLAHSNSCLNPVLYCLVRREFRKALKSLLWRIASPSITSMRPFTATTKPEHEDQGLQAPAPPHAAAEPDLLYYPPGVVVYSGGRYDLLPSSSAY

| Structure (SMILES) | target | assay | test system | conditions | how to read | endpoint | result |
| --- | --- | --- | --- | --- | --- | --- | --- |
| CC[C@H](C)[C@@H]1NC(=O)[C@H](Cc2ccccc2)NC(=O)[C@H](CCC(=O)O)NC(=O)[C@H](CCCNC(=N)N)NC(=O)CNC(=O)[C@@H](NC(=O)[C@H](CC(C)C)NC(=O)[C@H](CCCNC(=N)N)NC(=O)[C@@H](NC(=O)CNC(=O)[C@H](Cc2ccc(O)cc2)NC(=O)[C@@H]2CCCN2C(=O)[C@H](C)NC(=O)[C@H](C)NC(=O)[C@@H](N)CCCNC(=N)N)C(C)C)CSSC[C@@H]2NC(=O)[C@@H](NC(=O)[C@H](CO)NC(=O)[C@H](CO)NC(=O)[C@H](CO)NC(=O)[C@H](CC(C)C)NC(=O)CNC(=O)[C@H](C)NC(=O)[C@H](CC(C)C)NC(=O)[C@@H](NC(=O)[C@@H](N)CC(=O)O)C(C)C)CSSC[C@H](NC(=O)CNC(=O)[C@H](Cc3c[nH]c4ccccc34)NC(=O)[C@H](CCCCN)NC2=O)C(=O)N[C@@H](CO)C(=O)N[C@@H](CCCCN)C(=O)N[C@@H](CO)C(=O)N[C@@H](CCC(=O)O)C(=O)N[C@@H]([C@@H](C)CC)C(=O)N[C@@H](CO)C(=O)N[C@@H](CO)C(=O)N[C@@H](CC(C)C)C(=O)N[C@H](C(=O)O)CSSC[C@@H](C(=O)NCC(=O)NCC(=O)N[C@@H](CO)C(=O)N[C@@H](CCCNC(=N)N)C(=O)N[C@@H](Cc2c[nH]c3ccccc23)C(=O)O)NC(=O)[C@H]([C@@H](C)O)NC(=O)[C@H](Cc2ccccc2)NC(=O)[C@H]([C@@H](C)CC)NC(=O)[C@H](C(C)C)NC(=O)[C@H](C)NC(=O)[C@H](CCCNC(=N)N)NC1=O | RXFP3 (Homo sapiens, UniProt Q9NSD7, F131A) | – | HEK-293T | – | baseline: wild type | Emax | 83.2 ± 4.19% |
| COc1ccccc1C1CCN(c2nc(C3CC3)nc3ccc(N(C)CCO)cc23)CC1 | NTSR1 | β-arrestin recruitment, agonist | HEK-293T | – | – | Emax | 113% |
| CCCCCCOc1ccc(C(=O)OCCN2CC=CCC2)cc1 | CHRM5 | – | membranes | 1 µM, 15 h, with: carbachol | baseline: control | Emax | 1.47 ± 0.09 fold |
| COc1ccccc1C1CCN(c2nc(C3(C)CC3)nc3ccc(N(C)CCO)cc23)CC1 | NTSR1 | β-arrestin recruitment, agonist | HEK-293T | – | – | Emax | 106% |
| CCCCOc1ccc(C(=O)OCC[N+]2(C)CC=CCC2)cc1 (stereo not drawn) | CHRM5 | – | membranes | 10 µM, 15 h, with: carbachol | baseline: control | Emax | 1.43 ± 0.09 fold |
| COc1cc2nc(C3(C)CC3)nc(N3CCC(c4ccccc4OC)CC3)c2cc1OC | NTSR1 | β-arrestin recruitment, agonist | HEK-293T | – | – | Emax | 94.1% |
| CNC(=N)NCCC[C@H](NC(=O)[C@H](CC(C)C)NC(=O)NNC(=O)[C@H](Cc1ccccc1)NC(=O)[C@@H](NC(=O)[C@H](CC(N)=O)NC(=O)[C@@H]1C[C@@H](O)CN1C(=O)[C@@H](Cc1ccc(O)cc1)NC(C)=O)[C@@H](C)O)C(=O)N[C@@H](Cc1c[nH]c2ccccc12)C(N)=O | KiSS-1 receptor (KISS1R, Homo sapiens, UniProt Q969F8, N78A) | inositol phosphate, agonist | HEK293 | – | – | Emax | 67.8% |
| CSCC[C@H](NC(=O)[C@H](CC(C)C)NC(=O)CNC(=O)[C@H](Cc1ccccc1)NC(=O)[C@H](Cc1ccccc1)NC(=O)[C@@H](N)CCC(N)=O)C(N)=O | TACR1 (Homo sapiens, UniProt P25103, N85D) | agonist | – | concentration not given | – | Emax | 84 ± 6% |
| COc1ccccc1C1CCN(c2nc(C3CC3)nc3cc(C(F)(F)F)c(OC)cc23)CC1 | NTSR1 | β-arrestin recruitment, agonist | HEK-293T | – | – | Emax | 75.4% |
| CCCCCCOc1ccc(C(=O)OCC[N+]2(C)CC=CCC2)cc1 (stereo not drawn) | CHRM5 | – | membranes | 10 µM, 15 h, with: carbachol | baseline: control | Emax | 1.44 ± 0.06 fold |
| CCc1cc(O)cc2c(/C=N/NC(=N)NCCc3ccc(Cl)cc3)c[nH]c12 | RXFP4 (Homo sapiens, UniProt Q8TDU9, L118A/V122A) | – | HEK-293T | – | baseline: wild type | Emax | 89.8 ± 9.02% |
| N#Cc1cc(C=NOCc2ccc3nc(-c4ccccc4)c(Nc4ccc(C(=O)O)cc4)n3c2)ccc1F | TDP1 | enzyme activity, inhibitor | – | 100 µM, unpurified compound | – | inhibition | 27.7% |
| C=CCn1c(=O)c2ccccc2n2c(SCC(=O)OC)nnc12 | CHRM5 | receptor activation, agonist | – | concentration not given, 16 h | – | Emax | 120 ± 8% |
| COc1ccccc1C1CCN(c2nc(C3(F)CCC3)nc3c(Cl)cc(N(C)CCO)cc23)CC1 | NTSR1 | β-arrestin recruitment, agonist | HEK-293T | – | – | Emax | 122% |
| Cc1nn(C(=O)OC(C)(C)C)c(C)c1C=NOCc1ccc2nc(-c3ccccc3)c(Nc3ccc(C(=O)O)cc3)n2c1 (mixture of isomers) | TDP1 | enzyme activity, inhibitor | – | 100 µM, unpurified compound | – | inhibition | -3.6% |
| CC(C)C[C@H](NC(=O)[C@H](C)NC(=O)[C@H](CO)NC(=O)[C@@H]1CCCN1C(=O)[C@@H]1CCCN1C(=O)[C@H](CCC(N)=O)NC(=O)[C@H](CC(C)C)NC(=O)[C@@H](N)[C@@H](C)O)C(=O)N[C@@H](CCCNC(=N)N)C(=O)N[C@@H](CCCNC(=N)N)C(=O)N[C@@H](CCCNC(=N)N)C(=O)N[C@@H](Cc1c[nH]cn1)C(=O)N[C@@H](Cc1ccc(O)cc1)C(=O)N[C@@H](Cc1c[nH]cn1)C(=O)N[C@@H](Cc1c[nH]cn1)C(=O)N[C@@H](C)C(=O)N[C@@H](CC(C)C)C(=O)N1CCC[C@H]1C(=O)N1CCC[C@H]1C(=O)N[C@@H](CO)C(=O)N[C@@H](CCCNC(=N)N)C(=O)O | C3ar1 | cAMP response, agonist, GloSensor | – | – | baseline: TLQP-21 | Emax | 61.2 ± 2.17% |
| CC(C)[C@H](NC(=O)[C@@H]1CSSC(C)(C)[C@H](NC(=O)[C@@H](N)CC(=O)O)C(=O)N[C@@H](Cc2ccccc2)C(=O)N[C@H](Cc2c[nH]c3ccccc23)C(=O)N[C@@H](CCCN)C(=O)N[C@@H](Cc2ccc(O)cc2)C(=O)N1)C(=O)O | UTS2R (Homo sapiens, UniProt Q9UKP6) | β-arrestin recruitment, agonist | HEK293 | – | – | Emax | 14.9% |
| C=CCn1c(=O)c2ccccc2n2c(SC3CCOC3=O)nnc12 (stereo not drawn) | CHRM5 | receptor activation, agonist | – | concentration not given, 16 h | – | Emax | 119 ± 10% |
| CCCCOc1ccc(C(=O)OCCN2CC=CCC2)cc1 | CHRM5 | – | membranes | 1 µM, 15 h, with: carbachol | baseline: control | Emax | 1.68 ± 0.07 fold |
| CCCC[C@H](NC(=O)[C@H](CC(C)C)NC(=O)[C@H](CO)NC(=O)[C@H](CO)NC(=O)[C@H](C)NC(=O)[C@H](CO)NC(=O)[C@H](C)N)C(=O)N[C@@H](CC(=O)O)C(=O)N[C@@H](CCCCN)C(=O)N[C@@H](CCC(=O)O)C(=O)N[C@@H](C)C(=O)N[C@H](C(=O)N[C@@H](Cc1ccc(O)cc1)C(=O)N[C@@H](Cc1ccccc1)C(=O)N[C@@H](C)C(=O)N[C@@H](Cc1c[nH]cn1)C(=O)N[C@@H](CC(C)C)C(=O)N[C@@H](CC(=O)O)C(=O)N[C@H](C(=O)N[C@H](C(=O)N[C@@H](Cc1c[nH]c2ccccc12)C(=O)O)[C@@H](C)CC)[C@@H](C)CC)C(C)C | EDNRB (Homo sapiens, UniProt P24530) | agonist | HEK293 | ETBR/ETAR ratio 1:0.75 | – | Emax | 76 ± 5% |
| CC(C)C[C@H](NC(=O)[C@@H](N)[C@@H](C)O)C(=O)N[C@@H](CCC(N)=O)C(=O)N1CCC[C@H]1C(=O)N1CCC[C@H]1C(=O)N[C@@H](C)C(=O)N[C@@H](CO)C(=O)N[C@@H](CO)C(=O)N[C@@H](CCCNC(=N)N)C(=O)N[C@@H](CCCNC(=N)N)C(=O)N[C@@H](CCCNC(=N)N)C(=O)N[C@@H](Cc1c[nH]cn1)C(=O)N[C@@H](Cc1ccccc1)C(=O)N[C@@H](Cc1c[nH]cn1)C(=O)N[C@@H](Cc1c[nH]cn1)C(=O)N[C@@H](C)C(=O)N[C@@H](CC(C)C)C(=O)N1CCC[C@H]1C(=O)N1CCC[C@H]1C(=O)N[C@@H](C)C(=O)N[C@@H](CCCNC(=N)N)C(=O)O | C3ar1 | cAMP response, agonist, GloSensor | – | – | baseline: TLQP-21 | Emax | 58.4 ± 0.76% |

Repeated from above:
| Structure (SMILES) | target | assay | test system | conditions | how to read | endpoint | result |
| --- | --- | --- | --- | --- | --- | --- | --- |
| COc1ccccc1C1CCN(c2nc(C3CC3)nc3cc(C(F)(F)F)c(OC)cc23)CC1 | NTSR1 | β-arrestin recruitment, agonist | HEK-293T | – | – | Emax | 75.4% |
